Results gathered from unrelated publications.
Numbered parts are unrelated; each lists some results of a single study. Changes are numbered by the printed parent chain.

Set 1 — method: RNA Bind-n-Seq; molecule type: RNA; matrix: in vitro; tested at: 1 µM; notes: whole 134-nt RNA, ends assumed; with: 150 mM KCl; reference: input library; direction: higher = stronger binding
Target: Ras GTPase-activating protein-binding protein 1, C-terminal RGG region (G3BP1, Homo sapiens, UniProt Q13283)
Chain of UniProt Q13283 (whole entry, looked up): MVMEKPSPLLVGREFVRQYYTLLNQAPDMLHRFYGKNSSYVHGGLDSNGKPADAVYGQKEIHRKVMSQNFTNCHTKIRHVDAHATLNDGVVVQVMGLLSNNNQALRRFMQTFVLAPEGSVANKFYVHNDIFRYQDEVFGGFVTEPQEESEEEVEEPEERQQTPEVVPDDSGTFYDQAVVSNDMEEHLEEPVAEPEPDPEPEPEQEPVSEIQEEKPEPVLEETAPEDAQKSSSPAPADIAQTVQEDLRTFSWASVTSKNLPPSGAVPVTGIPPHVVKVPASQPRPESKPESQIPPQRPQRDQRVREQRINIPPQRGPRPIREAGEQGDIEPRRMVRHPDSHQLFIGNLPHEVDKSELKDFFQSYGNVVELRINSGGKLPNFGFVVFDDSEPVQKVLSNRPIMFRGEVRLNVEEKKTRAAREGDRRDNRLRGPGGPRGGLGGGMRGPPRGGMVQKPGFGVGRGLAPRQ
Constant ends, left off below: GGGAGUUCUACAGUCCGACGAUC … UGGAAUUCUCGGGUGUCAAGG
| Strand | log2 enrichment |
| --- | --- |
| UGUUGAAAUGGGACAGUUGGCAGCGGCUCUGAUGAGCCCGAGAAGAGGCCUGCCCUUGGGUGCGGAGUCUCCCUCCGCACGAUGCUCCCA | -1.55 |
| UAACUUUAGAGGAGGAUCUGAUGGAUAUGGCAGUGGACGUGGAUUUGGGGAUGGCUUUAAUGGGUAUGGAGGAGGACCUGGAGGUGGCAA | -1.2 |
| AGUCCUGUGCUACACAUCGUAUGUACCGAAUCGGAAAGGUUUUUUUGGAAAAAAAGGAAAGUAUUAUGUUACGCCGUUCGGAUCUGCACU | -2.6 |
| UAACUUUAGAGGAGGAUCUGAUGGAUAUGGCAGUGGACGUGGAUUUGGGGAUGGCUAUAAUGGGUAUGUAGGAGGACCUGGAGGUGGCAA | -0.759 |
| GUCCUGUGCUACACAUCGUAUGUACCGAAUCAAAUUUUUUUAAAUUUAAACCCCCAAAAAAGUAUUAUGUUACGCCGUUCGGAUCUGCAC | -0.764 |
| UAACUUUAGAGGAGGAUCUGAUGGAUAUGGCAGUGGACGUGGAUUUGGGGAUGGCUAUAAUGGGUACGGAGGAGGACCUGGAGGUGGCAA | -0.677 |
| CACAGACAACACGCACCCACACAGACACAGAGGGAAAAGGUUGGGAUGGGGACAGGGUGCACAGCAGGGCGGGGUAGGACCCCAGCCCCU | -0.16 |
| CACAGACAACACGCACCCACACAGACACUGAGGGAAGGGGUUGGGAUGGGGACAGGGUGCACAGCAGGGCGGGGUAGGACCCCAGCCCCU | -0.0308 |
| UCCUCAAGUCCUGUGCUACACAUCGUAUGUACCGAAUCGGUGGUGGGUGGGGAAAGUAUUAUGUUACGCCGUUCGGAUCUGCACUUCCAG | 0.412 |
| CCUCAAGUCCUGUGCUACACAUCGUAUGUACCGAAUCGGCGGGCGGGCGGGGAAAGUAUUAUGUUACGCCGUUCGGAUCUGCACUUCCAG | 0.231 |
| CUCAAGUCCUGUGCUACACAUCGUAUGUACCGAAUCGGAAAGGUUUGGAAAGGAAAGUAUUAUGUUACGCCGUUCGGAUCUGCACUUCCA | -1.29 |
| UCCUGUGCUACACAUCGUAUGUACCGAAUCGGGGAAAAAGGGGUUUUUUUGGGGUGGGGAAAGUAUUAUGUUACGCCGUUCGGAUCUGCA | 1.29 |
| GCAGGAAGUAAAAACAAAUGGAAAUGCUUCGGAUAGUGGCAGGGGUGGGGGUUGCUAAGGAAAGGGUGGGAUGGGAGUGGGGAAAGAGUU | 0.592 |
| AGUCCUGUGCUACACAUCGUAUGUACCGAAUCGGGGAAAAAAAGGGGUGGGGUGGGGAAAGUAUUAUGUUACGCCGUUCGGAUCUGCACU | 1.41 |

Set 2 — method: RNA Bind-n-Seq; molecule type: RNA; matrix: in vitro; tested at: 365 nM; reference: no-protein control; direction: higher = stronger binding
Target: RNA binding protein fox-1 homolog 2, RRM domain, GST-SBP tag (RBFOX2, Homo sapiens, UniProt O43251-10, residues 100-194)
Notes: natural RNA segment, single round, ends assumed
Constant ends, left off below: GGGAGUUCUACAGUCCGACGAUC … UGGAAUUCUCGGGUGCCAA
Target sequence (chain): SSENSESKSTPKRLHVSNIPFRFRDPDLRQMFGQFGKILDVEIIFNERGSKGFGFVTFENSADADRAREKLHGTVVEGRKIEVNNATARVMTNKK
| Strand | RBNS enrichment (R) |
| --- | --- |
| CUUAAAAUAUCCCCCUACCUGGGUCCUCAGUGCUAUGUUUAAAGUGCUGCAGGGAUGGAGUGGCGUUUUCUUAUUGCUGUAUGUAUUGUACAUAGUGGAGUAGUUAGUUA | 1.29 |
| AUUCCUUAUCAGAUAGUAAGUAACCUGUAAGUUUGGAGUAUUACUGUUUUCUCAGCAUGCAUUAAAAAUAUUCCUUAACUUCAAUUGUAAAUAAACUUUUGGUGUUAGGG | 9.89 |
| CCAUGUCUGGCAGAUGAGGGCUGUUUGCCCUUUUCUGUGCCAAUGAGUGCCCUUUUCUGGCACUCUCAGACCAAAAGUGUUUAUUGUGUCAUUUGUCCUUUGUCUAGGAG | 0.339 |
| UAGUCACAGCUUCUACUUGCAUAGCCCUCAGCUCCUCGAUGCAGGAAGGGGGCACUGCAUUGCUCUUUUGUUGCAGAGGCAGGGGGUAACUGCAUUAUUAUUGUGAAACA | 0.477 |
| AAUCCUUACUGAUAUUUAUAGAACAGUUGAUUUCCCCCAUCCCCAGUUUAUGGAUAUGCUGCUUUAAACUUGGAAGGGGGAGACAGGAAGUUUUAAUUGUUCUGACUAAA | 0.489 |
| GAUGGCCUCAUCUCCUGACUGUUUCAUGAACAACUCAUUCCUAGGUGUUAUUUGCAUGUGUGGGUUUCUCACAAGGCUCCCUCCCUUCCUCAGAAGGUUCAUCACGGAAU | 20 |
| GAAAGGUCAGUAUUUUAGCAUUUUAAAAGAUGAGUUAUAUAAUGUCUGCUUCCAGCCAGUCUGCAACAUCUAGCCAUACCUUUCUUAUGCAAGCCAUUCAGUUAUCAGGA | 0.474 |
| UUUCUAACUUUUAUAUCUUAAAAGCAGAGCACCUGUUUAAGCAUUGUACCCCUAUUGUUAAAGAUUUGUGUCCUCUCAUUCCCUCUCUUCCUCUUGUAAGUGCCCUUCUA | 1.52 |
| CGUGAUGAGAGCCUGUAGCUCGUGACACACUUCUUUGGGUUACUCUGCUACAUUUCUGUAAGAGAGUUAAGUCUGAGAACUAGUCUCGCAAGUGUAUCUGUUAGUACACU | 0.37 |
| AACACCACCUAGGCGCACGCGAGCAGAAGCCCUCUCUGUAUUACCGCUCCCUACGCAACAUACUUGAAUUCUUGAGUUCCCUUUGGGGUGAGAAAGGAUUUGAAACCAUA | 1.3 |
| UUUUCAUAAAUAUUUCUGUGGGCCAUUUUGCUUUGCUUGUUUGUGAAAAGAAUUGUCUCUAAUUAUUUGAACCUCUGAAGAAUUGUACACAAGGAGGAUCAGACUUUAAA | 0.556 |
| CAAACCCCGAGCUUCCAAGCCUUUUGCUCCAGCCCUGCGGCUUCCCCAGAAGCCUGGGCUUAGGGUGGAGAUGCCGCCUACACACGAUCCUGGCCCUCCACCUGCCUCCA | 0.754 |

Set 3 — target: CCNB3, cyclin fold, Cln2 fusion (human); method: yeast growth competition, sequencing; matrix: yeast; notes: weak parent motif; reference: not given; direction: higher = stronger binding
Starting sequence: MICAL3 docking peptide (human); LQLRRQLSFSEDS
| Change | normalised enrichment score |
| --- | --- |
| D12R | 0.282 |
| D12N | 0.598 |
| D12Y | -0.0108 |
| D12W | 0.204 |
| E11R | 0.546 |
| R4M | 0.0976 |
| S10T | 0.221 |
| E11A | 0.255 |
| F9K | 0.148 |
| R4V | -0.0309 |
| R5A | -0.0966 |
| Q2F | 0.249 |
| E11Q | 0.157 |
| S8W | 0.064 |
| S10A | 0.00468 |
| R4N | -0.0313 |
| S8E | -0.0902 |
| E11G | 0.341 |
| E11Y | 0.209 |

Set 4 — method: RNA Bind-n-Seq; molecule type: RNA; matrix: in vitro; tested at: not given; reference: input RNA pool; direction: higher = stronger binding
Target: RING finger protein unkempt homolog, zinc fingers 1-6, GST-SBP tag (UNK, Homo sapiens, UniProt Q9C0B0, residues 30-357)
Notes: RNA with constant flanks, human and mouse sites, ends assumed
Constant ends, left off below: GGGAGUUCUACAGUCCGACGAUC … CAACAGAGGAUUGAGCAUCA
Residues (chain): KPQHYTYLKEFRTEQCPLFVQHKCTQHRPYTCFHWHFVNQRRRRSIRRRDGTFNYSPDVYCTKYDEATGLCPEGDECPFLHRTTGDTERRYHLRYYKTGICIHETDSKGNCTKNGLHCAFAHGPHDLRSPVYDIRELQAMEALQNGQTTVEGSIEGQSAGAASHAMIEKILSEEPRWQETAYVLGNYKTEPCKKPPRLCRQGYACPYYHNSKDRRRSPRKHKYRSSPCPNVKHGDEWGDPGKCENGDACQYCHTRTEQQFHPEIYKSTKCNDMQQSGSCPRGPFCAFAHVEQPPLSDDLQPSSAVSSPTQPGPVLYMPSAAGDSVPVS
| Strand | bound/input enrichment |
| --- | --- |
| AUUGACAAGUGCAGACAGCAGCUUCAUGAUAUUACUGUACCGUUAGAAGUUUUUGAAUAUAUAGAUCAAGGUCGAAAUCCCCAGCUCUACACCAAAGAGUGCCUGGAGAGGGCUCUAGCU | 4.41 ratio |
| CGCUCUCAGCUGAAUGACAUCUCAUCUUUUAAGAAUAUCUACAGAUAUGCCUUUGAUUUUGCAAGGGAUAAAGAUCAGAGAAGCCUUGAUAUUGAUACUGCGAAGUCUAUGUUAGCUCUG | 0.109 ratio |
| UUACUUACUUAAUUUCUGGAGUUCGGGCCUCUGGGAUAGGCCCCAGACUGGGCCGGAAUGUUAGUGAAGGUUUUAUUGUGCCCGGUUGGAGGAUAAUGUUCUUUGUGUACUUUUUGUGGG | 0.487 ratio |
| CAUCAUUGAAGAGUCCUUAAAAACUUAACAGACUUGUGUAACAGCACAAGUAUGUUCCUAAAGUGCUGUAUUUACUGAAUCUGUUUCCUGGAAAAGUAAUUAAUAAAGCUUAUUCUCAGA | 0.114 ratio |
| UGGUGUUGCUGAACUGCUUUUUAACACAAUCCAGGCAGCCGACAUUGAUACCAGAUCUGAAUUUUACAAGCACAUUGUGCUUUCUGGAGGUUCUACCAUGUAUCCUGGCCUGCCAUCGAG | 0.0934 ratio |
| ACAUGUCACGUAGAAGAGACUCUCGGUGAGCAUUGCCUGUGAACUAAUAAUCCAGUGGACAAUAGGCUUUGCACCAGGGUGAGGUCCAGACCUCUGCAGCACAGAGCUCCCGAUGGUUGG | 0.338 ratio |
| UUUUGGUGUGUCAUCUUGUUUUUCACAACAUUUUUUCUGUCUUCAUUCCUCAAGCAAUUUAAGACCAAGCGUUACUUUCCUACCAAGGUGCGAUCGACAAUCAGUGAUUUUGCUGUAUUU | 0.203 ratio |
| UGGAUGAAUUUUUAGUGAAAAAUGAUCCCUGCCGAGCACGAGGUAGAACUAACAUUGAACUUAGAGAGAAAUUCAUCCUACCAGAGGGAGCAUCCCAGGGAAUGACCCCCUUCCGCUCAC | 0.352 ratio |
| AAACUGACAGAAGUUGACAAUUAUCAUUUUUACUCAUCUAUACCCUCAAUGGAAAAAGAAGUAGGUAACUGUAGUCCACAUUUUCUUAAUGCUUUUGAGGAUUCCUUCAGCAGCAUCCUC | 0.337 ratio |
| GCACAACGGGUGGCAGCCUGGACGCCUGGCCCCGCCAGCAACAGGGAAGCAGCCACAGCCAGCACCAGCCGGGCAGCCUACCAGGCAGCCAUCCGGGGUGUGGGCAGUGCUCAGAGCCGG | 0.0686 ratio |

Set 5 — method: protein binding microarray; molecule type: double-stranded DNA, one strand shown; matrix: in vitro; tested at: not given; reference: not given; direction: higher = stronger binding
Target: Histone acetyltransferase KAT6A, winged helix 1, GST fusion (KAT6A, Homo sapiens, UniProt Q92794, residues 1-85)
Notes: 8-mer, flanks averaged, mean of 2 arrays, mostly near background
Residues (chain): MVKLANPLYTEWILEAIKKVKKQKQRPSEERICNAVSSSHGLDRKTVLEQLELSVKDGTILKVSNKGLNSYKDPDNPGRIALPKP
| Strand | E-score |
| --- | --- |
| TAGGAGCA | -0.242 |
| AGACTGCG | 0.117 |
| CGCCAATA | 0.0137 |
| AACCTGAT | -0.186 |
| AAAGACTC | -0.214 |
| AGTGGGAT | -0.204 |
| ATGCCCTA | -0.215 |
| ACGCATTC | 0.167 |
| AGAGGACT | -0.098 |
| AGAAACTC | -0.0925 |
| CTGAACGA | -0.164 |
| CTGAATGC | -0.115 |
| ATGGTCGG | 0.11 |
| AGGCTTCA | 0.0681 |
| ATTACTGG | -0.158 |

Repeated from above (set 5):
| Strand | E-score |
| --- | --- |
| ACGCATTC | 0.167 |
| AGAGGACT | -0.098 |
| AGAAACTC | -0.0925 |
| CTGAACGA | -0.164 |
